# Published values of several laboratories.
# Protocols differ between the studies behind these lines. Numbers after ± are the reported error.
SMILES,assay,system,conditions,endpoint,result
CCCCCCCCCCCCCCCC(=O)N[C@@H](CCC(=O)NCCCC[C@H](NC(=O)[C@H](C)NC(=O)[C@H](C)NC(=O)[C@H](CCC(N)=O)NC(=O)CNC(=O)[C@H](CCC(=O)O)NC(=O)[C@H](CC(C)C)NC(=O)[C@H](Cc1ccc(O)cc1)NC(=O)[C@H](CO)NC(=O)[C@H](CO)NC(=O)[C@@H](NC(=O)[C@H](CC(=O)O)NC(=O)[C@H](CO)NC(=O)[C@@H](NC(=O)[C@H](Cc1ccccc1)NC(=O)[C@@H](NC(=O)CNC(=O)[C@H](CCC(=O)O)NC(=O)[C@H](C)NC(=O)[C@@H](N)Cc1cnc[nH]1)[C@@H](C)O)[C@@H](C)O)C(C)C)C(=O)N[C@@H](CCC(=O)O)C(=O)N[C@@H](Cc1ccccc1)C(=O)N[C@H](C(=O)N[C@@H](C)C(=O)N[C@@H](Cc1c[nH]c2ccccc12)C(=O)N[C@@H](CC(C)C)C(=O)N[C@H](C(=O)N[C@@H](CCCNC(=N)N)C(=O)NCC(=O)N[C@@H](CCCNC(=N)N)C(=O)NCC(=O)O)C(C)C)[C@@H](C)CC)C(=O)O,"population PK, full model","adult and pediatric type 2 diabetes, plasma","subcutaneous, dose not given",apparent volume of distribution (V/F),15.3 L
CC#CC(=O)N1CCC[C@H]1c1nc(-c2ccc(C(=O)Nc3ccccn3)cc2)c2c(N)nccn12,population pharmacokinetics,patients,"oral, dose not given",apparent peripheral volume (Vp/F),110 L
O=C(O)c1cccc(C(=O)O)c1,,betaine/glycerol DES-water,DES mass fraction 0.40,apparent dissolution enthalpy,3 kcal/mol
C=CC(=O)NC1CCN(c2ncc3ncnc(Nc4ccc(Oc5ccc6c(c5)ncn6C)c(C)c4)c3n2)CC1,,"healthy male volunteers, plasma","oral, 60 mg, unlabelled tablet",apparent clearance CL/F,139 mL/min
CO[C@H]1CC[C@H](N2C(=O)CNc3ncc(-c4ccc(C(C)(C)O)nc4)nc32)CC1,,"patients, plasma","15 mg, day 15",apparent clearance (CL/F),39.2 L/h
N[C@@H](CC(=O)N1CCc2c(nc(C(F)(F)F)nc2C(F)(F)F)C1)CN1CC(F)(F)CCC1=O,,"healthy Korean adults, fasted, plasma","oral, 50 mg single dose, separate tablets, added: enavogliflozin 0.3 mg",apparent volume Vd/F,965 ± 191 L
CC[C@H](C)[C@H](NC(=O)[C@H](Cc1ccccc1)NC(=O)[C@H](CCC(=O)O)NC(=O)[C@H](CCCCNC(=O)COCCOCCNC(=O)COCCOCCNC(=O)CC[C@H](NC(=O)CCCCCCCCCCCCCCCCC(=O)O)C(=O)O)NC(=O)[C@H](C)NC(=O)[C@H](C)NC(=O)[C@H](CCC(N)=O)NC(=O)CNC(=O)[C@H](CCC(=O)O)NC(=O)[C@H](CC(C)C)NC(=O)[C@H](Cc1ccc(O)cc1)NC(=O)[C@H](CO)NC(=O)[C@H](CO)NC(=O)[C@@H](NC(=O)[C@H](CC(=O)O)NC(=O)[C@H](CO)NC(=O)[C@@H](NC(=O)[C@H](Cc1ccccc1)NC(=O)[C@@H](NC(=O)CNC(=O)[C@H](CCC(=O)O)NC(=O)C(C)(C)NC(=O)[C@@H](N)Cc1cnc[nH]1)[C@@H](C)O)[C@@H](C)O)C(C)C)C(=O)N[C@@H](C)C(=O)N[C@@H](Cc1c[nH]c2ccccc12)C(=O)N[C@@H](CC(C)C)C(=O)N[C@H](C(=O)N[C@@H](CCCNC(=N)N)C(=O)NCC(=O)N[C@@H](CCCNC(=N)N)C(=O)NCC(=O)O)C(C)C,,type 2 diabetes patients,"subcutaneous, once weekly base model",apparent clearance,0.048 L/h
Cc1c(C(=O)O)ccc2c3n(nc12)[C@@H]1[C@H](C3)N(CC2CC2)[C@@]2(C(=O)Nc3cc(Cl)ccc32)[C@H]1c1cccc(Cl)c1F,,"cancer patients, plasma","oral, 45 mg day 1 every 3 weeks, geometric mean, cycle 1",apparent volume Vz/F,26.7 L
CCn1c(=O)c(-c2cc(NC(=O)Nc3ccccc3)c(F)cc2Br)cc2cnc(NC)cc21,LC-MS/MS,"human, plasma","oral, 150 mg once daily",apparent volume of distribution,177 L
OC[C@H]1O[C@@H](c2cc(Cc3ccc(C4CC4)cc3)c(Cl)c3c2CCO3)[C@H](O)[C@@H](O)[C@@H]1O,,"healthy Korean adults, fasted, plasma","oral, 0.3 mg single dose, fixed-dose combination tablet, added: co-administered drug 50 mg",apparent volume Vd/F,143 ± 30.5 L
COc1cc(Nc2ncc3c(n2)-c2ccc(Cl)cc2C(c2c(F)cccc2OC)=NC3)ccc1C(=O)O,population PK modelling,"cancer patients, plasma","oral, dose not given",apparent central volume (V1/F),51.8 L
O=C(c1cccnc1-c1ccncc1)N1CCC(O)(Cc2ccccc2)CC1,population PK model,healthy adults,"oral, dose not given",apparent central volume,65.5 L
CNC(=O)c1c(C)oc2cc(Oc3ncnc4cc(OC)c(OC)cc34)ccc12,final population PK model,cancer patients,"73 kg body weight, no PPIs",apparent clearance (CL/F),0.808 L/h
CC1(C)CCC(CN2CCN(c3ccc(C(=O)NS(=O)(=O)c4ccc(NCC5CCOCC5)c([N+](=O)[O-])c4)c(Oc4cnc5[nH]ccc5c4)c3)CC2)=C(c2ccc(Cl)cc2)C1,final population PK model,"AML patients, plasma",oral,apparent intercompartmental clearance (Q/F),93.1 L/day
COc1cc(N2CCC(N3CCN(C)CC3)CC2)ccc1Nc1ncc(Cl)c(Nc2ccccc2P(C)(C)=O)n1,,healthy subjects,"oral, dose not given, single dose",apparent volume of distribution,5.4 to 8.3 L/kg

# Repeated from above:
SMILES,assay,system,conditions,endpoint,result
CC[C@H](C)[C@H](NC(=O)[C@H](Cc1ccccc1)NC(=O)[C@H](CCC(=O)O)NC(=O)[C@H](CCCCNC(=O)COCCOCCNC(=O)COCCOCCNC(=O)CC[C@H](NC(=O)CCCCCCCCCCCCCCCCC(=O)O)C(=O)O)NC(=O)[C@H](C)NC(=O)[C@H](C)NC(=O)[C@H](CCC(N)=O)NC(=O)CNC(=O)[C@H](CCC(=O)O)NC(=O)[C@H](CC(C)C)NC(=O)[C@H](Cc1ccc(O)cc1)NC(=O)[C@H](CO)NC(=O)[C@H](CO)NC(=O)[C@@H](NC(=O)[C@H](CC(=O)O)NC(=O)[C@H](CO)NC(=O)[C@@H](NC(=O)[C@H](Cc1ccccc1)NC(=O)[C@@H](NC(=O)CNC(=O)[C@H](CCC(=O)O)NC(=O)C(C)(C)NC(=O)[C@@H](N)Cc1cnc[nH]1)[C@@H](C)O)[C@@H](C)O)C(C)C)C(=O)N[C@@H](C)C(=O)N[C@@H](Cc1c[nH]c2ccccc12)C(=O)N[C@@H](CC(C)C)C(=O)N[C@H](C(=O)N[C@@H](CCCNC(=N)N)C(=O)NCC(=O)N[C@@H](CCCNC(=N)N)C(=O)NCC(=O)O)C(C)C,,type 2 diabetes patients,"subcutaneous, once weekly base model",apparent clearance,0.048 L/h
Cc1c(C(=O)O)ccc2c3n(nc12)[C@@H]1[C@H](C3)N(CC2CC2)[C@@]2(C(=O)Nc3cc(Cl)ccc32)[C@H]1c1cccc(Cl)c1F,,"cancer patients, plasma","oral, 45 mg day 1 every 3 weeks, geometric mean, cycle 1",apparent volume Vz/F,26.7 L
